Experimental data from different studies.
Lines come from different studies, so protocols differ. Numbers after ± are the reported error. Converted amounts (≈) assume the structure as drawn.

| Molecule | test | test system | conditions | how to read | endpoint | value |
| --- | --- | --- | --- | --- | --- | --- |
| O=C(NCCCCCn1ccc2ccc(F)cc21)Oc1ccccc1 | – | porcine liver S9 fraction | 20 µM, 30 min, added: BNPP 1 mM | – | inhibition of degradation | 46% |
| CN[C@@](C)(C[18F])C(=O)O | – | SCID mouse DU-145 xenograft, brain | 120 min, post injection | – | tissue uptake | 0.3 ± 0.1 %ID/g |
| CSCC[C@@H]1NC(=O)[C@H](CC(=O)O)NC(=O)CNC(=O)[C@H](CCCNC(=N)N)NC(=O)[C@H](C)NC(=O)[C@H](CCC(=O)O)NC(=O)[C@H](CCCNC(=N)N)NC(=O)[C@@H]2CSSC[C@@H]3NC(=O)[C@H](CO)NC(=O)[C@H]([C@@H](C)O)NC(=O)[C@@H]4CCCN4C(=O)[C@H](C)NC(=O)[C@H](Cc4c[nH]c5ccccc45)NC(=O)[C@H](CC(=O)O)NC(=O)CNC(=O)[C@H](CCCNC(=N)N)NC(=O)CNC(=O)[C@H](CCC(N)=O)NC(=O)[C@@H]4CCCN4C(=O)[C@@H](NC(=O)CNC(=O)C(C)F)CSSC[C@H](NC(=O)CNC(=O)[C@H](C)NC(=O)[C@H](CC(C)C)NC(=O)[C@H](CSSC[C@@H](C(=O)NCC(N)=O)NC(=O)[C@H]([C@@H](C)O)NC(=O)[C@H](CCCNC(=N)N)NC(=O)[C@@H]4CCCN4C1=O)NC(=O)[C@H](CC(=O)O)NC(=O)[C@H](CO)NC(=O)[C@H](CC(=O)O)NC(=O)[C@H](CCC(N)=O)NC(=O)[C@H](CO)NC3=O)C(=O)N[C@@H](C(C)C)C(=O)N2 (some centres unmarked) [fluorine-18 labelled] | – | nude mouse, U-87 MG xenograft, spleen | intravenous, 2.5 h, added: cyclo(RGDyK) co-injected | – | tissue uptake | 0.24 ± 0.05 %ID/g |
| COc1ccc(-c2cc(=O)c3c(OC)c(OC)c(OC)cc3o2)cc1 | – | C57BL/6 mouse, male, small intestine | oral, 1% w/w in diet, 6 weeks, orange peel extract diet | baseline: content in orange peel | tissue to peel content ratio | 1.68% |
| CC[C@H](C)C(=O)O[C@H]1C[C@H](O)C=C2C=C[C@H](C)[C@H](CC[C@@H](O)C[C@@H](O)CC(=O)O)[C@H]21 | – | healthy volunteers, plasma | oral, dose not given, given alone | – | AUC | 49.4 ng·h/mL |
| [123I]c1cncc(OC[C@@H]2CCN2)c1 | SPECT | human, thalamus | intravenous bolus plus infusion, 7.8 mCi | baseline: plasma | tissue/plasma ratio | 42.2 |
| Oc1cccc2ccccc12 | fish short-term reproduction | Oryzias latipes, male, water, flow-through | 80.0 µg/L, end of exposure | – | body length | 39.2 ± 1.1 mm |
| NC(=O)c1nc(F)c[nH]c1=O | UV-Vis spectrophotometry | supercritical CO2 | 120 min, 308 K, 18 MPa, 848.87 kg/m^3 | – | solubility | 437 µg/mL (≈ 2780 µM) |
| CCCCCOc1ccc(-c2cc(-c3ccc(C(=O)N[C@H]4C[C@@H](O)[C@@H](O)NC(=O)[C@@H]5[C@@H](O)[C@@H](C)CN5C(=O)[C@H]([C@H](O)CC(N)=O)NC(=O)[C@H]([C@H](O)[C@@H](O)c5ccc(O)c(OS(=O)(=O)O)c5)NC(=O)[C@@H]5C[C@@H](O)CN5C(=O)[C@H]([C@@H](C)O)NC4=O)cc3)no2)cc1 | – | human paediatric patients 2 to 5 years, plasma | intravenous, 4.5 mg/kg once daily, day 7, geometric mean | – | weight-normalised steady-state clearance | 0.313 mL/min/kg |
| CCCCCCCC[N+](C)(C)C | in vitro-in vivo extrapolation | human | – | – | hepatic clearance | 1.35 mL/h/g liver |
| Oc1c(Cl)cc(Cl)c(Cl)c1Cc1c(O)c(Cl)cc(Cl)c1Cl | – | C57BL/6 mouse, brain | intravenous, 10 mg/kg, single dose | – | half-life | 338 min |
| CC[C@H](C)[C@@H]1NC(=O)[C@H]([C@@H](C)O)NC(=O)[C@@H](NC(=O)[C@H](Cc2ccccc2)NC(=O)[C@H](C)NC(=O)[C@H](CCCCN)NC(=O)[C@H](CCCCN)NC(=O)[C@H](CC(C)C)NC(=O)[C@@H](NC(=O)[C@H](CCCCN)NC(=O)[C@H](C)NC(=O)[C@H](C)NC(=O)[C@@H](NC(=O)CNC(=O)[C@H](C)NC(=O)[C@@H](NC(=O)[C@H](CCCCN)NC(=O)[C@@H]2CCCN2C(=O)[C@H](Cc2ccccc2)NC(=O)[C@@H](N)Cc2ccccc2)C(C)C)C(C)C)C(C)C)CSSC[C@@H](C(=O)O)NC(=O)[C@H](CCCCN)NC(=O)[C@H](CCCCN)NC(=O)[C@H](CO)NC1=O | haemolysis | horse erythrocytes | 2 h, 37 °C | – | HC10 | 2.51 µM |
| COC(=O)N[C@H](C(=O)N1CCC[C@H]1C(=O)Nc1ccc([C@@H]2CC[C@@H](c3ccc(NC(=O)[C@@H]4CCCN4C(=O)[C@@H](NC(=O)OC)C(C)C)cc3)N2c2ccc(C(C)(C)C)cc2)cc1)C(C)C | – | healthy human volunteers, plasma | oral, dose not given, added: escitalopram plus 2D regimen | – | AUC(0-24) | 1310 ng·h/mL |
| CNC[C@H](O)[C@@H](O)[C@H](O)[C@H](O)CO.CNC[C@H](O)[C@@H](O)[C@H](O)[C@H](O)CO.O=C([O-])CN(CCN(CC(=O)[O-])CC(=O)O)CCN(CC(=O)[O-])CC(=O)O.[Gd+3] | T1-weighted MRI, 9.4 T | nude mice, BT-20 breast cancer xenograft, tumour periphery | iv, 200 µmol/kg | – | half-life | 29.6 ± 2.4 min |
| CC(=O)N[C@@H](CCCNC(=N)N)C(=O)N[C@H](C(=O)N[C@@H](CCCNC(=N)N)C(=O)N[C@@H](CCCNC(=N)N)C(=O)N[C@@H](CSSC(C)(C)C)C(=O)N[C@@H](CCCCNC(=O)c1ccc(F)cc1)C(=O)Nc1ccc2nc(C#N)sc2c1)C(C)C | – | mouse, blood | intravenous, 20 µmol/kg | – | Cmax | 49.8 µM |
| Cc1cc(C)c(/C=C2\C(=O)Nc3ccccc32)[nH]1 | – | human patients without enzyme-inducing anticonvulsants, plasma | intravenous, 145 mg/m^2, week 6 | – | terminal half-life | 59.4 ± 22.8 min |
| Ac-KKKRKV-OH (N-acetyl) | – | C57BL/6J mouse | intravenous, 2 mg, 24 h | – | survival | 100% |
| CC[C@H](C)[C@H](NC(=O)[C@H](CCCCN)NC(=O)[C@@H](NC(=O)[C@H](CCC(N)=O)NC(=O)[C@H](CCCNC(=N)N)NC(=O)c1ccc2c(c1)C(=O)OC21c2ccc(O)cc2Oc2cc(O)ccc21)[C@@H](C)CC)C(=O)N[C@@H](Cc1c[nH]c2ccccc12)C(=O)N[C@@H](Cc1ccccc1)C(=O)N[C@@H](CCC(N)=O)C(=O)N[C@@H](CC(N)=O)C(=O)N[C@@H](CCCNC(=N)N)C(=O)N[C@@H](CCCNC(=N)N)C(=O)N[C@@H](CCSC)C(=O)N[C@@H](CCCCN)C(=O)N[C@@H](Cc1c[nH]c2ccccc12)C(=O)N[C@@H](CCCCN)C(=O)N[C@@H](CCCCN)C(=O)O | – | excised Sprague-Dawley rat skin | 50 µM, 0 to 5 h, 37 °C, 0.5% DMSO, FAM-labelled | – | Papp | 1.75 ± 0.25 ×10⁻⁶ cm/s |
| Cc1sc2c(c1C)C(c1ccc(Cl)cc1)=N[C@@H](CC(=O)OC(C)(C)C)c1nnc(C)n1-2 | – | Ringer's with 10% beta-cyclodextrin | time not given, plastic vessel, low-bind vial | baseline: nominal 50 ng/mL | recovery | 98.2% |
| CC1(C)S[C@@H]2[C@H](NC(=O)[C@@H](C(=O)O)c3ccsc3)C(=O)N2[C@H]1C(=O)O | – | rat plasma | 8000 ng/mL, -20 °C to room temperature, three freeze-thaw cycles | – | measured concentration | 7960 ± 95 ng/mL |
| CC[C@H]1CN2CCc3cc(OC)c(OC)cc3[C@@H]2C[C@@H]1C[C@@H]1c2cc(OC)c(OC)cc2CCN1C(=O)[C@@H]1CCCN1C(=O)[C@H](C)N | – | mouse, male | intravenous, 16 mg/kg, single toxic dose | – | time to convulsions and death | 1 to 2 min |
| CC[C@H](C)[C@H](NC(=O)[C@H](Cc1ccccc1)NC(=O)[C@H](CCC(=O)O)NC(=O)[C@H](CCCCNC(=O)COCCOCCNC(=O)COCCOCCNC(=O)CC[C@H](NC(=O)CCCCCCCCCCCCCCCCC(=O)O)C(=O)O)NC(=O)[C@H](C)NC(=O)[C@H](C)NC(=O)[C@H](CCC(N)=O)NC(=O)CNC(=O)[C@H](CCC(=O)O)NC(=O)[C@H](CC(C)C)NC(=O)[C@H](Cc1ccc(O)cc1)NC(=O)[C@H](CO)NC(=O)[C@H](CO)NC(=O)[C@@H](NC(=O)[C@H](CC(=O)O)NC(=O)[C@H](CO)NC(=O)[C@@H](NC(=O)[C@H](Cc1ccccc1)NC(=O)[C@@H](NC(=O)CNC(=O)[C@H](CCC(=O)O)NC(=O)C(C)(C)NC(=O)[C@@H](N)Cc1cnc[nH]1)[C@@H](C)O)[C@@H](C)O)C(C)C)C(=O)N[C@@H](C)C(=O)N[C@@H](Cc1c[nH]c2ccccc12)C(=O)N[C@@H](CC(C)C)C(=O)N[C@H](C(=O)N[C@@H](CCCNC(=N)N)C(=O)NCC(=O)N[C@@H](CCCNC(=N)N)C(=O)NCC(=O)O)C(C)C | item: SCr, BUN, AST, ALT | Kunming mice | subcutaneous, 100 nmol/kg once daily, 14 days | baseline: saline | renal and liver toxicity | no effect |
| CS(=O)(=O)CCCn1c(Cn2c(=O)n(CC(F)(F)F)c3ccncc32)cc2cc(Cl)ccc21 | – | RSV-infected infants | dose not given, low dose cohorts | – | serious adverse events | 8% |

A few entries again:
| Molecule | test | test system | conditions | how to read | endpoint | value |
| --- | --- | --- | --- | --- | --- | --- |
| CC1(C)S[C@@H]2[C@H](NC(=O)[C@@H](C(=O)O)c3ccsc3)C(=O)N2[C@H]1C(=O)O | – | rat plasma | 8000 ng/mL, -20 °C to room temperature, three freeze-thaw cycles | – | measured concentration | 7960 ± 95 ng/mL |
| CC[C@H]1CN2CCc3cc(OC)c(OC)cc3[C@@H]2C[C@@H]1C[C@@H]1c2cc(OC)c(OC)cc2CCN1C(=O)[C@@H]1CCCN1C(=O)[C@H](C)N | – | mouse, male | intravenous, 16 mg/kg, single toxic dose | – | time to convulsions and death | 1 to 2 min |
| CC[C@H](C)[C@H](NC(=O)[C@H](Cc1ccccc1)NC(=O)[C@H](CCC(=O)O)NC(=O)[C@H](CCCCNC(=O)COCCOCCNC(=O)COCCOCCNC(=O)CC[C@H](NC(=O)CCCCCCCCCCCCCCCCC(=O)O)C(=O)O)NC(=O)[C@H](C)NC(=O)[C@H](C)NC(=O)[C@H](CCC(N)=O)NC(=O)CNC(=O)[C@H](CCC(=O)O)NC(=O)[C@H](CC(C)C)NC(=O)[C@H](Cc1ccc(O)cc1)NC(=O)[C@H](CO)NC(=O)[C@H](CO)NC(=O)[C@@H](NC(=O)[C@H](CC(=O)O)NC(=O)[C@H](CO)NC(=O)[C@@H](NC(=O)[C@H](Cc1ccccc1)NC(=O)[C@@H](NC(=O)CNC(=O)[C@H](CCC(=O)O)NC(=O)C(C)(C)NC(=O)[C@@H](N)Cc1cnc[nH]1)[C@@H](C)O)[C@@H](C)O)C(C)C)C(=O)N[C@@H](C)C(=O)N[C@@H](Cc1c[nH]c2ccccc12)C(=O)N[C@@H](CC(C)C)C(=O)N[C@H](C(=O)N[C@@H](CCCNC(=N)N)C(=O)NCC(=O)N[C@@H](CCCNC(=N)N)C(=O)NCC(=O)O)C(C)C | item: SCr, BUN, AST, ALT | Kunming mice | subcutaneous, 100 nmol/kg once daily, 14 days | baseline: saline | renal and liver toxicity | no effect |
